Measurements collected from several papers.
Lines come from different studies, so protocols differ. ± gives the spread as reported.
T1: ATRX ADD domain 167-289 K251R/F284Y (Homo sapiens); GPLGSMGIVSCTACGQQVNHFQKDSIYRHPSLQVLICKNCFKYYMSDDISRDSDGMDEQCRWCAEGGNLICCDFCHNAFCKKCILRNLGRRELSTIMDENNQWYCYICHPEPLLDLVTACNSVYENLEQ
B1: GIGYF2 35-105 E46A/E47F/Q89A (Homo sapiens, UniProt Q6Y7W6-1); chain KYKLADYRYGRAFMLALFLKDNKIPSDLLDKEFLPILQEEPLPPLALVPFTEEEARNFSMSVNSAAVLRLT
B2: HMGB1 (Homo sapiens, UniProt P09429); chain MGKGDPKKPRGKMSSYAFFVQTCREEHKKKHPDASVNFSEFSKKCSERWKTMSAKEKGKFEDMAKADKARYEREMKTYIPPKGETKKKFKDPNAPKRPPSAFFLFCSEYRPKIKGEHPGLSIGDVAKKLGEMWNNTAADDKQPYEKKAAKLKEKYEKDIAAYRAKGKPDAAKKGVVKAEKSKKKKEEEEDEEDEEDEEEEEDEEDEDEEEDDDDE
B3: EIF2AK3 105-403 (Homo sapiens, UniProt Q9NZJ5); chain LVIISTLDGRIAALDPENHGKKQWDLDVGSGSLVSSSLSKPEVFGNKMIIPSLDGALFQWDQDRESMETVPFTVESLLESSYKFGDDVVLVGGKSLTTYGLSAYSGKVRYICSALGCRQWDSDEMEQEEDILLLQRTQKTVRAVGPRSGNEKWNFSVGHFELRYIPDMETRAGFIESTFKPNENTEESKIISDVEEQEAAIMDIVIKVSVADWKVMAFSKKGGHLEWEYQFCTPIASAWLLKDGKVIPISLFDDTSYTSNDDVLEDEEDIVEAARGATENSVYLGMYRGQLYLQSSVRI
B4: PLXND1 1553-1678 S1614V/T1615A (Homo sapiens, UniProt Q9Y4D7); chain AKPRNLNVSFQGCGMDSLSVRAMDTDTLTQVKEKILEAFCKNVPYSQWPRAEDVDLEWFASVAQSYILRDLDDTSVVEDGRKKLNTLAHYKIPEGASLAMSLIDKKDNTLGRVKDLDTEKYFHLVL
B5: BRAF kinase 448-723 K723G/P722S/S720E/L716E/S713E/Q709R/L706S/A688R/Y673S/F667Y/K630S/V600E/L588N/Q562R (Homo sapiens, UniProt P15056); sequence looked up; chain DDWEIPDGQITVGQRIGSGSFGTVYKGKWHGDVAVKMLNVTAPTPQQLQAFKNEVGVLRKTRHVNILLFMGYSTKPQLAIVTQWCEGSSLYHHLHASETKFEMKKLIDIARQTARGMDYLHAKSIIHRDLKSNNIFLHEDNTVKIGDFGLATEKSRWSGSHQFEQLSGSILWMAPEVIRMQDSNPYSFQSDVYAFGIVLYELMTGQLPYSNINNRDQIIYMVGRGSLSPDLSKVRSNCPKRMKRLMAECLKKKRDERPSFPRILAEIEELARELSG
B6: UBP10 157-792 (Saccharomyces cerevisiae, UniProt P53874); chain KASLKERDNADKGDGEDIGEDIGEDIGEDIGEDIGEDIGENLGSPLATIDDSSNENEKEKRKELSTSISSDDEIEDDEDEDDMDYDSSAMEKELPEEEENDSSSKISEGEKKSLYQDLMENSTVEVNRYEPVNNTKENGNRNPKGEEEEEEEEELKHKSRSITPPVTISNLSNFYQFNENINDRGSLNSTRIVKNWGDKFTNLKPRGLLNHGVTCYTNAAVQAMLHIPSIQHYLFDILMGKYDSTISKNSVSYTLAETSKKMWLPVSKNPRKNVSASYINPKHLISRLDDINCMMSEWQQEDSHEYFMSLMSRLQEDSVPKGHKLIESIIYDIFGGLLKQIVTCKSCGSISKTEQPFYDLSLHLKGKKKLDPNSDLSSDSINGTSATTSTTTSNAATKPSLSSSSSVNLNNGSPFAAASDLSSANRRFSIEKSIKDFFNPELIKVDKEQKGYVCEKCHKTTNAVKHSSILRAPETLLVHLKKFRFNGTSSSKMKQAVSYPMFLDLTEYCESKELPVKYQLLSVVVHEGRSLSSGHYIAHCKQPDGSWATYDDEYINIISERDVLKEPNAYYLLYTRLTPKSVPLPLAKSAMATGNVTSKSKQEQAVNEPNNRPLKINSKKNNRKKWKKNKKRKFTK
Chain of UniProt P11021 (whole entry, looked up): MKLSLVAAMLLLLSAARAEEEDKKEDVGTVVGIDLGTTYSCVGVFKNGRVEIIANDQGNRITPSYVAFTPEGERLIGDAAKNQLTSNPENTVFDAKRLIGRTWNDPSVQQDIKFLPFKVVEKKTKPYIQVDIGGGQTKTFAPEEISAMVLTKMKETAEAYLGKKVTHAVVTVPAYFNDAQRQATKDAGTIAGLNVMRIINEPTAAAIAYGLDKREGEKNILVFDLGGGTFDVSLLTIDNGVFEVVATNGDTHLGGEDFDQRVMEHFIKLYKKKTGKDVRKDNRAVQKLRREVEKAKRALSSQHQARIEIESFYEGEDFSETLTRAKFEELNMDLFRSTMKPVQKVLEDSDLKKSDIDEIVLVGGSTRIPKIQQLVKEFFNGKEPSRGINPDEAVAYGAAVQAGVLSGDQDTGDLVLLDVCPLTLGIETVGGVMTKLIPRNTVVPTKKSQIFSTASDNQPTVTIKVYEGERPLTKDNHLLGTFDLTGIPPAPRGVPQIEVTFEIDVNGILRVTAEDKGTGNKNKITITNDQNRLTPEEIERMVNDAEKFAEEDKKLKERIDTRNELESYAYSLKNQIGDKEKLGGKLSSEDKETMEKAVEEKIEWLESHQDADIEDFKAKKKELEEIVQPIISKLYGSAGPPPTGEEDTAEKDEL
Chain of UniProt Q92730 (whole entry, looked up): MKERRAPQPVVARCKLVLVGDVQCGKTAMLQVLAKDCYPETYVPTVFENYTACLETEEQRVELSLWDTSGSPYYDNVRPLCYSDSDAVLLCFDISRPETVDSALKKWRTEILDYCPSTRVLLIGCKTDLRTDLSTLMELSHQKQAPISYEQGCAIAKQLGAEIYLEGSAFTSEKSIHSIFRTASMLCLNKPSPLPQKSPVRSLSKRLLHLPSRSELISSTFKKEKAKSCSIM
Chain of UniProt P38646 (whole entry, unmodified, looked up): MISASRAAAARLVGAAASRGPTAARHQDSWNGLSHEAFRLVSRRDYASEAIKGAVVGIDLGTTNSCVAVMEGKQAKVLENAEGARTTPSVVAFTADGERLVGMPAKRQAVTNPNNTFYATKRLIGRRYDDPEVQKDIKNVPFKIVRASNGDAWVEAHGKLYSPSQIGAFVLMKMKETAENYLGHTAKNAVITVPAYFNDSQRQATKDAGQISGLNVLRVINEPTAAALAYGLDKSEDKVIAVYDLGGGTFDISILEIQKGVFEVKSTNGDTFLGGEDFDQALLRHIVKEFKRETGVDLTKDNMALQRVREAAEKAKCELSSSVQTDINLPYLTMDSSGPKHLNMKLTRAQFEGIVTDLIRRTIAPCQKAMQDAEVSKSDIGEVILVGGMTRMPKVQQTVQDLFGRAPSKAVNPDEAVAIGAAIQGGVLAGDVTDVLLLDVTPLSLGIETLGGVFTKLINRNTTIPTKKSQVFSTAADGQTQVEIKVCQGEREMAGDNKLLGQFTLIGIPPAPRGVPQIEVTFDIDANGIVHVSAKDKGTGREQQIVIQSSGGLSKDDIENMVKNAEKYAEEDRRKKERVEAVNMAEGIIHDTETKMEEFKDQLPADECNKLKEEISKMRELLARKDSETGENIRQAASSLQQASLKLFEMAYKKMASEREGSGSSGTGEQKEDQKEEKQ

With `B1 (GIGYF2 35-105 E46A/E47F/Q89A)` the Kd was 0.5 ± 0.3 nM (EIF4E2 52-234 Q159S/M161D/R202E (Homo sapiens, UniProt O60573-1); ITC; peptide).
The Kd of `ARTKQTARKSTGGKAY (H3C1 1-15; K4me2)` is reported as 66700 nM (T1, ATRX ADD domain 167-289 K251R/F284Y (Homo sapiens); ITC; peptide).
For `GRGRGRGRGRGRGRGRGRGRGRGRGRGRGRGRGRGRGRGR ((GR)20 20 repeats; TAMRA label N-terminal)`, the Kd was 85.2 ± 12.3 nM (FUS 267-526 (Homo sapiens, UniProt P35637); fluorescence polarisation; peptide).
The Kd of `B2 (HMGB1)` is reported as 299 nM (TLR4/LY96 complex (Homo sapiens); SPR).
With `B3 (EIF2AK3 105-403)` the Kd was 2600 ± 500 nM (HSPA5 28-654 (Homo sapiens, UniProt P11021); MST).
`B4 (PLXND1 1553-1678 S1614V/T1615A)` gave a Kd of 4780 ± 80 nM (RND1 5-200 (Homo sapiens, UniProt Q92730); SPR).
The Kd of `CALLLSAPRR (GOT2 (Gallus gallus); fluorescein label)` is reported as 19500 nM (HSPA9 47-584 (Homo sapiens, UniProt P38646); FP; peptide).
`B5` has a Kd of 18.6 ± 0.7 nM (MAP2K1 (Homo sapiens, UniProt Q02750); BLI).
`B6 (UBP10 157-792)` has a Kd of 158 ± 71 nM (HTA1/HTB1 H2A/H2B heterodimer 2-132 (Saccharomyces cerevisiae); ITC).
With `SPTF (BRIP1 peptide 990-993; N-acetyl, pS, C-amide)` the Kd was 2310 ± 60 nM (BRCA1 BRCT domain; ITC; peptide).
The Kd of `F9 heavy and light chains, activated (UniProt P00740)` is reported as 1.3 nM (F8 activated, A1/A2/A3-C1-C2 R336Q (Homo sapiens); FXa generation, factor Xa generation rate; with: FX).
